Assay results pooled from the literature.
Compare with care: the assays were run in different laboratories. ± gives the spread as reported.
Sequence of UniProt P11388 (whole entry, looked up): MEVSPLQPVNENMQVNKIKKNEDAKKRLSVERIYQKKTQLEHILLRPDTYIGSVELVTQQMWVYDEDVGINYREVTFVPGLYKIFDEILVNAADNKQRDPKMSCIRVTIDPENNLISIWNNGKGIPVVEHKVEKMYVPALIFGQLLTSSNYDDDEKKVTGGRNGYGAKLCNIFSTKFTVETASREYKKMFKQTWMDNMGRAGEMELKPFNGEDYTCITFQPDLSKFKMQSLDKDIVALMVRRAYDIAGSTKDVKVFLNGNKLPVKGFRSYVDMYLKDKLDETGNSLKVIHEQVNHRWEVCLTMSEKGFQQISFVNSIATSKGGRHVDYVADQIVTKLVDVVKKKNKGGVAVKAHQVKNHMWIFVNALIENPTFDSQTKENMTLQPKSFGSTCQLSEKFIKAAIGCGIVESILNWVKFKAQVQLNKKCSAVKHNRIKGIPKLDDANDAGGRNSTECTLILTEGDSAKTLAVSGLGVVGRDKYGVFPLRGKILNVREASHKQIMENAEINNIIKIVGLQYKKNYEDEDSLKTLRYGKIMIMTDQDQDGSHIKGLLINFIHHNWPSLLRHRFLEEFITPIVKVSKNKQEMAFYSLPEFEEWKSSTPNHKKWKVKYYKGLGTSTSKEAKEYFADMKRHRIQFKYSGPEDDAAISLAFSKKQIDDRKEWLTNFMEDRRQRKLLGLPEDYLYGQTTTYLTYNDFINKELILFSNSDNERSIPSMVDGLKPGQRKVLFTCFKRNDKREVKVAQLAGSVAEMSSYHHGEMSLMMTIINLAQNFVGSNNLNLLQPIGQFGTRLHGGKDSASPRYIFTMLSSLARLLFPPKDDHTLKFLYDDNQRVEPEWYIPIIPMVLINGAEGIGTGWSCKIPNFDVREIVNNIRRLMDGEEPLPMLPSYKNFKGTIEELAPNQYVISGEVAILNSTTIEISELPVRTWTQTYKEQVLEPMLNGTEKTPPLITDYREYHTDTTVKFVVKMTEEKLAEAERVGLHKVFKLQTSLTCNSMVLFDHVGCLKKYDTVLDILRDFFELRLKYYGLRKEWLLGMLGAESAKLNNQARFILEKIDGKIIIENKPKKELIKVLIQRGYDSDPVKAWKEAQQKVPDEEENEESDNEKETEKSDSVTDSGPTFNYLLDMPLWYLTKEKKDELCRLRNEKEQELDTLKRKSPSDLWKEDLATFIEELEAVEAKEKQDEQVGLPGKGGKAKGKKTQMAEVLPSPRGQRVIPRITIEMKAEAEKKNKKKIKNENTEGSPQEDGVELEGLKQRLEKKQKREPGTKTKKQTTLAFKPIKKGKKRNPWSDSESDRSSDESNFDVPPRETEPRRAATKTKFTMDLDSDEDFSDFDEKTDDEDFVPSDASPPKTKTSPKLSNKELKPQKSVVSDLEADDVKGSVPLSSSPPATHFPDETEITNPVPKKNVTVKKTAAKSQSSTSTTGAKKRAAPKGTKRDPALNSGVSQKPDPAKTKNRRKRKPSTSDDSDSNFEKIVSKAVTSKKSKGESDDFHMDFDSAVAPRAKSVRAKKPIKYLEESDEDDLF

Cc1c(S(=O)(=O)N2CCn3cccc3C2)cc(C(=O)NCc2cccnc2N2CCCC2)n1C  EC50 (SARS-CoV-2; viral replication; Huh7.5 cells, WA1/2020): 0.6 µM
CO/N=C(\C(=O)N[C@@H]1C(=O)N2C(C(=O)O)=C(COC(C)=O)CS[C@H]12)c1csc(N)n1  MIC (Pseudomonas aeruginosa; clinical isolate RKI-No_130/15): > 16 mg/L
COc1cc([C@@H]2c3cc4c(cc3[C@@H](O[C@@H]3O[C@@H]5CO[C@@H](C)O[C@H]5[C@H](O)[C@H]3O)[C@H]3COC(=O)[C@H]23)OCO4)cc(OC)c1O  linear DNA (DNA topoisomerase 2-alpha (TOP2A, Homo sapiens, UniProt P11388); DNA cleavage; 15.6 µM, replicate 1): 10.8%
C[C@@H](CCc1ccccc1)NC(=O)[C@@H](c1cccnc1)N(C(=O)C(Cl)Cl)c1ccc(-c2ccccc2)cc1  EC50 (SARS-CoV-2; viral replication; Caco-2 hACE2): 1.43 µM
Cc1c(S(=O)(=O)N2CCn3nccc3C2)cc(C(=O)NCc2c(F)ccc3cnn(C)c23)n1C  EC50 (SARS-CoV-2; viral replication; Huh7.5 cells, WA1/2020): 0.17 µM
CCCN(CCC)C(=O)c1cccc(C(=O)N[C@H](C)c2cccc3ccccc23)c1  EC50 (SARS-CoV-2; viral replication; Vero E6): 15 µM
N#CCC1CCN(c2nc(Nc3ccc(N4CCC(O)CC4)cc3)c3c(=O)[nH]ncc3n2)CC1  osteopontin level difference (vs placebo, Olink multiplex; human, serum; 40 mg, day 29, unit not given; baseline: placebo): -1.19
C[C@@H](NC(=O)c1ccccc1CCC(=O)NNC(=O)/C=C/C#N)c1cccc2ccccc12  EC90 (SARS-CoV-2; viral replication; HeLa-ACE2; extrapolated above 10 µM): > 10 µM
COC(=O)Nc1c(N)nc(-c2nn(Cc3ccccc3F)c3ncc(F)cc23)nc1N  Cmax (healthy male humans, plasma; oral, 1.25 mg single dose, phase I DDI study, alone): 0.0372 µg/mL
C[C@H](NC(=O)[C@@H](c1cccnc1)N(C(=O)C(Br)(Br)Br)c1ccc(-c2ccccc2)cc1)c1ccccc1  EC50 (SARS-CoV-2; viral replication; Caco-2 hACE2): 2.15 µM
CC(C)C[C@H](NC(=O)OCc1ccccc1)C(=O)N[C@H](C=O)C[C@@H]1CCCNC1=O  EC50 (SARS-CoV-2; viral replication, RT-qPCR viral load; Vero; 48 h): 2.1 ± 0.5 µM
Fc1ccccc1Cc1nc(-c2nc(C(F)(F)F)n[nH]2)cn2ccnc12  subjects with musculoskeletal TEAEs (healthy human subjects, both sexes; oral, 10 mg, fed): 7.7%
CC(=O)/C=C/C(=O)NNC(=O)CCc1ccccc1C(=O)N[C@H](C)c1cccc2ccccc12  EC90 (SARS-CoV-2; viral replication; HeLa-ACE2; extrapolated above 10 µM): > 10 µM
CNCc1ccc(C)c(C(=O)N[C@H](C)c2cccc3ccccc23)c1  EC50 (SARS-CoV-2; viral replication; Vero E6): 20 µM
Cc1c(S(=O)(=O)N2CCn3nccc3C2)cc(C(=O)NCc2c(F)ccnc2N2CCCC2)n1C  EC50 (SARS-CoV-2; viral replication; Huh7.5 cells, WA1/2020): 0.27 µM

Repeated from above:
CC(C)C[C@H](NC(=O)OCc1ccccc1)C(=O)N[C@H](C=O)C[C@@H]1CCCNC1=O  EC50 (SARS-CoV-2; viral replication, RT-qPCR viral load; Vero; 48 h): 2.1 ± 0.5 µM
Fc1ccccc1Cc1nc(-c2nc(C(F)(F)F)n[nH]2)cn2ccnc12  subjects with musculoskeletal TEAEs (healthy human subjects, both sexes; oral, 10 mg, fed): 7.7%
